Assay results gathered from unrelated publications.
Every numbered part comes from another study and shows a few of its results, in no order. Changes are numbered by the printed parent chain.

Sample 1 — target: CCND1, cyclin fold, Cln2 fusion (human); method: yeast growth competition, sequencing; matrix: yeast; setting: strong parent motif; relative to: not given; direction: higher = stronger binding
Starting sequence: CDKN1A docking peptide (human); SKACRRLFGPVDS; partner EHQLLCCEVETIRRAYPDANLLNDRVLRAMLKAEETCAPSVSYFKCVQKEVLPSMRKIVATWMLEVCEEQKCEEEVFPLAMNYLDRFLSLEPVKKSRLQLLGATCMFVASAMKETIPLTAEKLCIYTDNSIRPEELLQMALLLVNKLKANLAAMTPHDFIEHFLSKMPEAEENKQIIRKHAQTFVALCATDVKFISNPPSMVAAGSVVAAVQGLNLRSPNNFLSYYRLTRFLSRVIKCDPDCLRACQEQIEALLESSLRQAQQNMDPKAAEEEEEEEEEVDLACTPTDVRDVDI
Variant | normalised enrichment score
SKACRRLFGVVDS [P10V] | 1.37
SKACKRLLGPVDS [R5K F8L] | 0.137
SRACRRLFGPVDS [K2R] | 2.55
SKYCRRLFGPVDS [A3Y] | 0.13
SKACRRLFGPVKS [D12K] | 1.52
SDACRRLFGPVDS [K2D] | 1.78
SKACRRLFEPVDS [G9E] | 3.56
SKACRRLHGPVDS [F8H] | 0.0364
SKACRFLFGPVDS [R6F] | 0.656
SKACRRLFGPVSS [D12S] | 1.76
SKACRRLFGPRDS [V11R] | 1.96
SPACRRLFGPVDS [K2P] | 2.93
SKACIRLFGPVDS [R5I] | 0.725
SKACRPLFGPVDS [R6P] | 0.347
SKACRRLFGGVDS [P10G] | 2.24
SKACRRLFGPKDS [V11K] | 2.18
SKACRRLWGPVDS [F8W] | 0.789
SKACRRLFCPVDS [G9C] | 2.76
SKACRRLFGQVDS [P10Q] | 1.48
SKACRRKFGPVDS [L7K] | 0.15
SKACRRLFGSVDS [P10S] | 2.34
SKAFRRLFGPVDS [C4F] | 0.328
SKACRRLFPPVDS [G9P] | 3.55
SKACRRLNGPVDS [F8N] | 0.0688
SKAARRLFGPVDS [C4A] | 1.45

Sample 2 — method: protein-binding microarray; form: double-stranded DNA, one strand shown; matrix: in vitro; concentration: 2200 nM top; setting: 60-bp whole probe; added: salmon DNA 0.4 mg/ml; relative to: random background probes; direction: higher = stronger binding; all sequences stand within: GCCTAGCAC … GTCTTGATTCGCTTGACGCTGCTG
Target: Interferon regulatory factor 7, full length, phosphomimetic (IRF7, Homo sapiens, UniProt Q92985, residues 1-503, S471D/S472D/S475D/S476D/S477D/S483D/S484D/S487D)
Construct (chain): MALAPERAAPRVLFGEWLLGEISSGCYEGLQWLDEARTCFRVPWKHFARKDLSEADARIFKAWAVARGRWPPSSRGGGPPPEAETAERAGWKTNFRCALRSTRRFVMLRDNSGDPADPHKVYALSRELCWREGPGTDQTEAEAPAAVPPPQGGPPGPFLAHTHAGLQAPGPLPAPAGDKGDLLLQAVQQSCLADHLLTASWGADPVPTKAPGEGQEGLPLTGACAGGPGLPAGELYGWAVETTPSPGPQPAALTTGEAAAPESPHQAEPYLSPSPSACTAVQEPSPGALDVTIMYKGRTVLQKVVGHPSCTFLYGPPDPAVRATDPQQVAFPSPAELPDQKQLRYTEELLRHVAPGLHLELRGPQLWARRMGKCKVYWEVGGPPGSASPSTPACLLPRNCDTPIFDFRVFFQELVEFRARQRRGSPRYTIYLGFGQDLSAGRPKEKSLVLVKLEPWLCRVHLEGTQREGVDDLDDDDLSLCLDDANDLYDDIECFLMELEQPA
Oligonucleotide | fitted relative affinity [z-score]
TCATCGTAAGCAAAAATACTGTGCTAG | -0.19
GACGAACTGAGACTGGAGACGTGCTAG | -0.164
TCAAATCTCCCATTATAACTGTGCTAG | 0.822
GACGGTTCCCTTTTCTTGACGTGCTAG | 2.23
TTAGATTCCACTTTCGATTAGTGCTAG | 8.92
GACGGTTTCCTTATCCTGACGTGCTAG | 3.02
GATGGTCTCGGTTTCGGGACGTGCTAG | 4.21
GACGGTCACCTACTGCTGACGTGCTAG | 0.00575
GGCTTCCTCTTTCTCTGCTAGTGCTAG | 2.17
TGAAATTTTAATAACACAGAGTGCTAG | -1.14
TTAGATATCGGGTATGGATTAGTGCTA | 0.0811
GGGTCTTCAGGTTCTCCCCCAGTGCTA | 0.0517
GGCTGTTTGGTTCTGATCCTGTGCTAG | 0.542
TTAGGTTTCGGTTCCTGTTAGTGCTAG | 11.5
TTAGAAATGAGTATCGATTAGTGCTAG | -0.631
TTAGGTCTCGGACTGGGTTAGTGCTAG | -0.227
GACGATATCGACTTTCGGGACGTGCTA | 3.37

Sample 3 — method: RNA Bind-n-Seq; form: RNA; matrix: in vitro; concentration: 1 µM; setting: whole 134-nt RNA, ends assumed; added: 150 mM KCl; relative to: input library; direction: higher = stronger binding
Target: Ras GTPase-activating protein-binding protein 1, RRM domain (G3BP1, Homo sapiens, UniProt Q13283)
Chain of UniProt Q13283 (whole entry, looked up): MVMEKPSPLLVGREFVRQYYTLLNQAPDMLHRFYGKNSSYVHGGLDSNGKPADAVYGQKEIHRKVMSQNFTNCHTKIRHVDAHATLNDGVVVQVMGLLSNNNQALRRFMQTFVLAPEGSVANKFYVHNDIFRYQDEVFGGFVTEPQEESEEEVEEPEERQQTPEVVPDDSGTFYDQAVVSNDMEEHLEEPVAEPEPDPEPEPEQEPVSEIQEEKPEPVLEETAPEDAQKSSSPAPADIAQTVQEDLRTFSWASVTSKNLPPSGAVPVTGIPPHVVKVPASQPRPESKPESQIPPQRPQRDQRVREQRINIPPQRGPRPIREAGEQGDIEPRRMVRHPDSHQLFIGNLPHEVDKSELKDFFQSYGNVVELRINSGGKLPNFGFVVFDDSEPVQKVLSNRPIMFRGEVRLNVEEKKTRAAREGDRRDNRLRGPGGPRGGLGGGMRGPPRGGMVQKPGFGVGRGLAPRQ
Oligonucleotide | log2 enrichment
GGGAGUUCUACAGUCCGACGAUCAGUCCUGUGCUACACAUCGUAUGUACCGAAUCGGGUUUUUGGGGUUUUUGGUUUUUGGAAAGUAUUAUGUUACGCCGUUCGGAUCUGCACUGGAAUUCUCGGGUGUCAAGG | -0.194
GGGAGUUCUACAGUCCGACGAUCGUCCUGUGCUACACAUCGUAUGUACCGAAUCAAAUUUUUUUAAACCCAAACCCCCAAAAAAGUAUUAUGUUACGCCGUUCGGAUCUGCACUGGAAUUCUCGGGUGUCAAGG | -1.24
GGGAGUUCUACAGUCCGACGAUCGGGACGUCAGCAUCGGCAUCAAGUGUGCCCCUGGAGUGGUAGGCCCCGCCGAAGCUGACAUCGACUUCGACAUCAUCCGCAAUGACAAUGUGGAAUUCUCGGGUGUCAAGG | -0.378
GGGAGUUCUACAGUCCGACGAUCUGGCCCUGGUGGCAUGCGGGGAGGAAGAGGCGGCCUCAUGGAUCGUGGUGGUCCCGGUGGAAUGUUCAGAGGUGGCCGUGGUGGAGACAGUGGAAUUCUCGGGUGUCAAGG | 0.982
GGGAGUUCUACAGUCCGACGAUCAAGUCCUGUGCUACACAUCGUAUGUACCGAAUCGGGAAAAAAAGGGUGGGAAAGGGAAAGUAUUAUGUUACGCCGUUCGGAUCUGCACUUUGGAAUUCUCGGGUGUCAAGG | 0.749
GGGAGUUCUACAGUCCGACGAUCGUCCUGUGCUACACAUCGUAUGUACCGAAUCGGAAAAAGGGAAAAAGGGGAAAAAGGGAAAGUAUUAUGUUACGCCGUUCGGAUCUGCACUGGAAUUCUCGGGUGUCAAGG | 0.0225
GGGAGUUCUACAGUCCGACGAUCGUCCUGUGCUACACAUCGUAUGUACCGAAUCGGGGAAAGGGGUUUUUGGGGUUUGGGGAAAGUAUUAUGUUACGCCGUUCGGAUCUGCACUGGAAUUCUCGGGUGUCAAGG | 0.997
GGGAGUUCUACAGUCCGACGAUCUGGCCCUGGUGGCAUGCGGGGAGGAAGAGGAGGCCUCAUGGAUCGUGGUGGUCCCGGUGGAAUGUUCAGAGGUGGCCGUGGUGGAGACAGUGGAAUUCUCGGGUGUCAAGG | 0.813
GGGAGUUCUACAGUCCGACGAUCGCAGGAAGUAAAAACAAAUGGAAAUGCUUCGGAUAGUGGCAGGGGUGGGGGUUGCUAAGGAAAGGGUGGGAUGGGAGUGUGUAAAGAGUUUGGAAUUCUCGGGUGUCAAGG | 1.26
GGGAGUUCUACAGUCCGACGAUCUGGCCCUGGUGGCAUGCGGGGAGGAAGAGGUGGCCUCCUGGAUCGUGGUGGUCCCGGUGGAAUGUUCAGAGGUGGCCGUGGUGGAGACAGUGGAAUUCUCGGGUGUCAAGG | 0.824
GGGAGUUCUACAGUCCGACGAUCAAGUCCUGUGCUACACAUCGUAUGUACCGAAUCGGGUUUUGGGUUUUGGUUUUGGGAAAGUAUUAUGUUACGCCGUUCGGAUCUGCACUUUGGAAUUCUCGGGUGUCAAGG | -0.238
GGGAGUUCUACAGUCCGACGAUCUCAAGUCCUGUGCUACACAUCGUAUGUACCGAAUCGGGUUGGGGUUGGUUGGGGAAAGUAUUAUGUUACGCCGUUCGGAUCUGCACUUCCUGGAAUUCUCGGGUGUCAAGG | 0.252
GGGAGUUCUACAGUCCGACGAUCACCAUGCAGGUGGGCAUCUUUGGGAAGUGGGGCAAGGGGGGGAUAGGGAGGGGGGUAACACUUUGGGAACAGGUGGUCCCACGUCGUUUCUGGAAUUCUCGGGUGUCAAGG | 0.63
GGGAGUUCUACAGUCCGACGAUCGCAGGAAGUAAAAACAAAUGGAAAUGCUUCGGAUAAAAGCAGGGGUGGGGGUUGCUAAGGAAAGGGUGGGAUGGGAGUGGGUAAAGAGUUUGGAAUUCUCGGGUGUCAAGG | 1.22

Sample 4 — method: RNA Bind-n-Seq; form: RNA; matrix: in vitro; concentration: 365 nM; relative to: no-protein control; direction: higher = stronger binding
Target: RNA binding protein fox-1 homolog 2, RRM domain, GST-SBP tag (RBFOX2, Homo sapiens, UniProt O43251-10, residues 100-194)
Setting: natural RNA segment, single round, ends assumed
Oligonucleotide | RBNS enrichment (R)
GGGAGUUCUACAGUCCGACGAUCUUCCUUUUUCAAGACAACACCUGCCUGGCUUCUAUUAAUGUGUGCUGGCCAUGAUAUUGCCCCAAAUCCGCCCCACUGAAGUGUUCCCUAAGGAACAGCAUUUCUCUGCUUGGAAUUCUCGGGUGCCAA | 1.08
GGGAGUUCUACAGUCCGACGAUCCAGCUUCGCACAGGCUCCUGGAGGGCUGCCUGGGGGAGGCAGACAUGGGAGUGCCAAGGUGGCCAGAUGGUUCCAGGACUACAAUGUCUUUAUUUUUAACUGUUUGCCACUGGAAUUCUCGGGUGCCAA | 1.5
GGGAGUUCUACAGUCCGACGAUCCGGUCUGCCUCCAGGGAUCCUGGGACCCUGAUGGCGAUCGUCCUGUCAUGCUGGGCCCUUCAUUUGAUCUGGGACAUAGCAUCACAGCAGUCAGGGCACCUGGAUUGUUCUGGAAUUCUCGGGUGCCAA | 0.374
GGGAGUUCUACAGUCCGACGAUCGGAGCCCAAGAAGAGCUAGACUGACCCUGUAAACUUAGGGUUCCAUUUGGUCUUAACACUAUGGGCUUUGUUUGCUCUGUGCUGCUGUGCCACUGCUGUUGUCUGCUCAUUGGAAUUCUCGGGUGCCAA | 0.368
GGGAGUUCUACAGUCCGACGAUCUGCUUCCUCUCCUGUCAAUUUCAGGAACCUUUGAGGCCCAGUUCCAGCUAUAACCACAAUCCUUGCCUGAGGCCUUUUGAUUUCUGUUUGGCUGUGCCUGGGUAGGGGCAUGGAAUUCUCGGGUGCCAA | 0.988
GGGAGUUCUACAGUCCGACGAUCGUCCCCGUACCACCAUGCACUGUAAAUAUCCCUCCCCUCUCUCCCUGGUCCCCUCCCCCAUCCCCACCACUGAUAUCAUGGGGAGUAAUAGGACCAGAGCGGUAUCUCUGUGGAAUUCUCGGGUGCCAA | 0.805
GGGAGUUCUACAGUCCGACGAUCCAUCUGUGCCAACGGUUGGACUUUUUAUGGCUGAGAUUCGGGAGGAAGUGUGACACCAAGCAGGAGAGGAAGAAUGAUUUUCUUUGUACUUAGGUUUUCUAAGGACAUUGUGGAAUUCUCGGGUGCCAA | 1.44
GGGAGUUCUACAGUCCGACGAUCUACCUGAAGCCAAAGCCAUUGCUAGCCUUACCCCUGUGAAGGAGACAUUGGAUUCCCCAGUGAGAUCAUCUAGAAACCAUCUAAAUAAACCACUCUAUAUUUUAUGAAUUUGGAAUUCUCGGGUGCCAA | 0.465
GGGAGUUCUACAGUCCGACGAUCGCGACCUCACACAGCCUCUGCAGAUGGAUCCCUGCACGCCUCUUUCUGAUGAAGUGAUUGUAGUAGGUGUCUGUAGCUAGUCUUCAAGACCACACCUGGAAGAGUUUCUGUGGAAUUCUCGGGUGCCAA | 0.377
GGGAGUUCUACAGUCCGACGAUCUCUGAAAACUAAGCCCUCAAUGAACGACUUAAUUAACUCACUGCAUUAGUCUCCAUAAUUGGUCUCGCUGGACACGUGCACAGCUGUGGCUCUCAGCAGCUUCCCUGCAGUGGAAUUCUCGGGUGCCAA | 0.435
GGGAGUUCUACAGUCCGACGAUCUUUCAACAUGCUUUCAAUCUGUCAACACAAAGGAAAAAAAAGGCAGUGUUUAAAGAUUGUUGAUUUUUUUCCUGGGGAUAAUCUAUAUUAUACUGACUUUAUAUUAAUUAUGGAAUUCUCGGGUGCCAA | 0.935
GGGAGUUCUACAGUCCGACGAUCCCCAGCUGCGUUUUUUUAUAGUAGAUUUUUAACAAAAAACGGGGAGAAAUAAUGCAUUUCUGUGGAUACAGUGCCCACCGCCCUCCUCCACUUGGAAACGGUAUCCUCCCUGGAAUUCUCGGGUGCCAA | 0.602

Excerpt of the above (sample 2):
Oligonucleotide | fitted relative affinity [z-score]
GACGGTTTCCTTATCCTGACGTGCTAG | 3.02
GATGGTCTCGGTTTCGGGACGTGCTAG | 4.21
GACGGTCACCTACTGCTGACGTGCTAG | 0.00575
GGCTTCCTCTTTCTCTGCTAGTGCTAG | 2.17
TGAAATTTTAATAACACAGAGTGCTAG | -1.14
TTAGATATCGGGTATGGATTAGTGCTA | 0.0811
GGGTCTTCAGGTTCTCCCCCAGTGCTA | 0.0517
GGCTGTTTGGTTCTGATCCTGTGCTAG | 0.542
